Experimental data pooled from the literature.
Lines come from different studies, so protocols differ. Values joined by “and” are separate records of one study, mostly repeats; a detail may differ. ± gives the spread as reported.
CYP1A2: Cytochrome P450 1A2 (CYP1A2, Homo sapiens, UniProt P05177)
Sequence of UniProt P05177 (whole entry, looked up): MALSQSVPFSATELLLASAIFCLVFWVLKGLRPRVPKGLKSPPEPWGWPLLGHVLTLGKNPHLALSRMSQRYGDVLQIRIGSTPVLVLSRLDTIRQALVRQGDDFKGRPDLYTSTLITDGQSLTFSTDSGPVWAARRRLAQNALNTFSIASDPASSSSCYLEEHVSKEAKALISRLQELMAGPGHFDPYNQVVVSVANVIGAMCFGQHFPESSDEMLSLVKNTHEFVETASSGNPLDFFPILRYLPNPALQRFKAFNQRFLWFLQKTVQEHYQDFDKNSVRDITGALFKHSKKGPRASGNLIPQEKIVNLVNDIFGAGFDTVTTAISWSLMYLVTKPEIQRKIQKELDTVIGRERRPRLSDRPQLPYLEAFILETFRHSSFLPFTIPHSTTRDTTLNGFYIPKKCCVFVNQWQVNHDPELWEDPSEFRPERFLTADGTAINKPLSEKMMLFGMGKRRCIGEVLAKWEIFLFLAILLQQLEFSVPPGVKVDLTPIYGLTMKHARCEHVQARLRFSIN
CYP2D6: Cytochrome P450 2D6 (CYP2D6, Homo sapiens, UniProt P10635)
Sequence of UniProt P10632 (whole entry, looked up): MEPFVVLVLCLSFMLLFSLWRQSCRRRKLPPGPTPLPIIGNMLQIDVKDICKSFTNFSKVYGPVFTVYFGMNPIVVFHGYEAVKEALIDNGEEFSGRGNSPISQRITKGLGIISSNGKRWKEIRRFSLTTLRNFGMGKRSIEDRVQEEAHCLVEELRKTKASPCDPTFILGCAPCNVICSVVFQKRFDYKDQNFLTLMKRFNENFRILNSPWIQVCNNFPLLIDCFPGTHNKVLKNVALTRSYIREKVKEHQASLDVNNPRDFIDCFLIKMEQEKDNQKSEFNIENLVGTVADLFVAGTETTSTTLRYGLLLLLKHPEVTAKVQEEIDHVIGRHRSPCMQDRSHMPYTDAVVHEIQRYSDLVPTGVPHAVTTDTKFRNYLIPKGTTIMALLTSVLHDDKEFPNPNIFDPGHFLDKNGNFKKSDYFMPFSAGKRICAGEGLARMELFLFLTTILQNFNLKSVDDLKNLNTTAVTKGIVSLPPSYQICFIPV
Sequence of UniProt P10635 (whole entry, looked up): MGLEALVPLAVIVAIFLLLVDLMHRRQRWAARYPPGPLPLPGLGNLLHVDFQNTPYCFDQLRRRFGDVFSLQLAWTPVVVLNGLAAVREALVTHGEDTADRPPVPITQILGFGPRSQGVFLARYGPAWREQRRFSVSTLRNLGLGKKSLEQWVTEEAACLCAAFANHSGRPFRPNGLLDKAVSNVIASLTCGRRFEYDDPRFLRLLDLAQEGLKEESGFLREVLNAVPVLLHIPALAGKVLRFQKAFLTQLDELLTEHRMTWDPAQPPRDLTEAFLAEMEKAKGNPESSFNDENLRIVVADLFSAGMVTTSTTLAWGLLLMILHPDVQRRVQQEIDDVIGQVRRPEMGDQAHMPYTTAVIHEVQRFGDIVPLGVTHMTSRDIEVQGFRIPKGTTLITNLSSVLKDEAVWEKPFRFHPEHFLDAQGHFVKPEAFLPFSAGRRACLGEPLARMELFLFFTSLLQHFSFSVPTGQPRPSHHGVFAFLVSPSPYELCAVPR
Sequence of UniProt Q96JM7 (whole entry, looked up): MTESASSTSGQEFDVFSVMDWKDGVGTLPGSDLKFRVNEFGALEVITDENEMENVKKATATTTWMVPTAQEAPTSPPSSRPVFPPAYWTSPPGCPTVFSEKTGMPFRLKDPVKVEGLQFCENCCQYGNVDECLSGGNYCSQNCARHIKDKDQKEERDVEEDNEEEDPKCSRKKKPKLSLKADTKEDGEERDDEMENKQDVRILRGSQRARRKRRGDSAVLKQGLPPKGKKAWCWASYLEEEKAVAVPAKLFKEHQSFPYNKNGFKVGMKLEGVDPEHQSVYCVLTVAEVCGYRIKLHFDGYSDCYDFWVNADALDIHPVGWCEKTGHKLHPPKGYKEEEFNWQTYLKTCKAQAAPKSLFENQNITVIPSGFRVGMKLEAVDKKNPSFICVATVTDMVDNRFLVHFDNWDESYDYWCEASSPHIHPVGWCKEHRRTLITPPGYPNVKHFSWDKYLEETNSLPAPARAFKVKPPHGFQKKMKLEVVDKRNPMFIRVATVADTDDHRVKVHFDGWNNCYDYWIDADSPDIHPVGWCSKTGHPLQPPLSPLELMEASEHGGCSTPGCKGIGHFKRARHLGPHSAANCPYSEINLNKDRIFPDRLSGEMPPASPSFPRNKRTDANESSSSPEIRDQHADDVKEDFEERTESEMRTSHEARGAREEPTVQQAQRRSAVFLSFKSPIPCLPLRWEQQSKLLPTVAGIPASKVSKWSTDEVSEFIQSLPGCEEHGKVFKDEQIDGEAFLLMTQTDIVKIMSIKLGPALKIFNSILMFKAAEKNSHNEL
Sequence of UniProt P51589 (whole entry, looked up): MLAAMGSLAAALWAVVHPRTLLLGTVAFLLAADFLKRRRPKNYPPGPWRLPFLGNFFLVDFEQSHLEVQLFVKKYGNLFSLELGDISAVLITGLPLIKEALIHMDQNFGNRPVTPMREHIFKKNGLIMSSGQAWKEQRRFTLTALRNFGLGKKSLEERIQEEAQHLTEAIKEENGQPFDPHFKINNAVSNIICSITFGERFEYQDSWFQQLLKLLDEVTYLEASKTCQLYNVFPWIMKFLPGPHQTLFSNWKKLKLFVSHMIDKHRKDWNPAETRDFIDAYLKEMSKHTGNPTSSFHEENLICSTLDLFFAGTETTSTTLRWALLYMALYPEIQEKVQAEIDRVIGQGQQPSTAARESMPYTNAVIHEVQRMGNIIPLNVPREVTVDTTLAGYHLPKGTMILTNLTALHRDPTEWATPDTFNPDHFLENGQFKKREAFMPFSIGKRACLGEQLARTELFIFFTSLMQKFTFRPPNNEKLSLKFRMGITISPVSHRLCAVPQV
Sequence of UniProt P56658 (whole entry, looked up): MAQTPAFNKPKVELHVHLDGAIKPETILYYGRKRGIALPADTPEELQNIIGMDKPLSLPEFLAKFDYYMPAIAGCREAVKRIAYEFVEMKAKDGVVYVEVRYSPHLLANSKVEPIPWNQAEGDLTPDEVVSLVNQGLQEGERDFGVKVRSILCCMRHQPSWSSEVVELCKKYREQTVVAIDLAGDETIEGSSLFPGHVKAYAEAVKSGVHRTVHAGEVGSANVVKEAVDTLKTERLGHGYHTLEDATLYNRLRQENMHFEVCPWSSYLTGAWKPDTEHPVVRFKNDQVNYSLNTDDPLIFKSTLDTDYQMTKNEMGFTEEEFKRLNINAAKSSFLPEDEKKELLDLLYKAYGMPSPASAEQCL
Sequence of UniProt P10636 (whole entry, looked up): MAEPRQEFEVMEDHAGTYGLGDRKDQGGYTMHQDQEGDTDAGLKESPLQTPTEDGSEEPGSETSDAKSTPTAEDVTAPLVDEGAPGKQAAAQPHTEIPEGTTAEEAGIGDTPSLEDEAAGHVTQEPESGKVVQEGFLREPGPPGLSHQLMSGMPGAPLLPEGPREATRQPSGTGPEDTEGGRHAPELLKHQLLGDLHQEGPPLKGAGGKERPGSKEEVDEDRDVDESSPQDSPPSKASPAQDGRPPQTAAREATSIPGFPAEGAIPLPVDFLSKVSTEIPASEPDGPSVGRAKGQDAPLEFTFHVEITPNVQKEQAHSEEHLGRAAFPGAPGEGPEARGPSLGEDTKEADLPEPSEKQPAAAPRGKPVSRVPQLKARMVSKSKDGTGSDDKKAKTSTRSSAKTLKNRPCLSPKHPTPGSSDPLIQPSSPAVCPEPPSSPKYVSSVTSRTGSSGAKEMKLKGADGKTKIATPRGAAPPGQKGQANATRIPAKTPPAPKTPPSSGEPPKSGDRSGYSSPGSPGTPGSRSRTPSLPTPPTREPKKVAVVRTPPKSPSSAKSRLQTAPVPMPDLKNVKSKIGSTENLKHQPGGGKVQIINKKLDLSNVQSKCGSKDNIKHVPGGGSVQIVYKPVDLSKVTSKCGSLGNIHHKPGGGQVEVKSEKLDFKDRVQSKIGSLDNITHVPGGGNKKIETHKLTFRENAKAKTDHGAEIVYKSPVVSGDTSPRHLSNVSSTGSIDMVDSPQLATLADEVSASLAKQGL

The IC50 of O=C(CCCCCCC(=O)Nc1ccccc1)NO is reported as 7.58 µM (CYP1A2; enzyme activity, inhibitor, Vivid fluorescent).
Under “contribution to metabolism”, C=CC(=O)Nc1cc(Nc2nccc(-c3cn(C)c4ccccc34)n2)c(OCC(F)(F)F)nc1N(C)CCN(C)C is recorded as 2.61% (CYP1A2; substrate, substrate depletion; 3 µM, 60 min, normalised to liver abundance).
For O=C(CN1CN(c2ccccc2)C2(CCN(C(=O)c3ccc4[nH]ncc4c3)CC2)C1=O)N(CCO)CC(F)(F)F, the IC50 was > 50 µM (CYP2D6; enzyme activity, inhibitor).
CNC(=O)C1CCCN(C(=O)C2CC3CCC2N3C(=O)[C@@H]2C[C@@H](O)CN2C(=O)NCc2cccc(Cl)c2F)C1 (mixture of isomers) has a remaining activity of 86.3% and 89.3% and 91.8% (Cytochrome P450 2C8 (CYP2C8, Homo sapiens, UniProt P10632); preincubation without NADPH; human; 16.7 µM; baseline: negative control).
For CN(CC(F)(F)F)C(=O)CN1CN(c2ccccc2)C2(CCN(C(=O)c3ccc4[nH]ncc4c3)CC2)C1=O, the IC50 was 20 µM (CYP2D6; enzyme activity, inhibitor).
Cc1nc2ccc(S(=O)(=O)n3nc(SCc4ccc(Cl)cc4)nc3N)cc2s1 gave an inhibition of 32% (CYP1A2; enzyme activity, inhibitor; human, liver microsomes; 10 µM).
[2H]c1c(NS(C)(=O)=O)c([2H])c2c(C(=O)c3ccc(OCCCN(CCCC)CCCC)cc3)c(CCCC)oc2c1[2H] gave a kinact/KI of 133 M⁻¹ s⁻¹ (Cytochrome P450 2J2 (CYP2J2, Homo sapiens, UniProt P51589); inactivator; with: astemizole substrate).
For Cc1ncsc1-c1ccc(C(C)NC(=O)C2CC(O)CN2C(=O)C(NC(=O)CCCCCCCCCCN2CCCC(Nc3ncc(Cl)c(Nc4ccccc4S(=O)(=O)C(C)C)n3)C2)C(C)(C)C)cc1 (stereo not drawn), “log2 fold change” read -4.52 (22Rv1; RNA-seq, measured: MATN1-AS1; concentration not given; baseline: DMSO).
For [18F]c1ncccc1-c1ccc2c(n1)[nH]c1ccncc12, “initial brain uptake” read ~4 SUV (Microtubule-associated protein tau (MAPT, Homo sapiens, UniProt P10636); PET imaging; Alzheimer's disease patients; intravenous, dose not given, first 5 min).
Nc1nc(N)c2nsc([C@@H]3O[C@H](CO)[C@@H](O)[C@H]3O)c2n1 gave a deamination half-life of 58.8 ± 0.4 s (Adenosine deaminase (ADA, Bos taurus, UniProt P56658); substrate, HPLC; bovine enzyme; 11.1 µM, pH 7.4, binary substrate mixture).
N#Cc1cccc(N2CN(CC(=O)NCC(F)(F)F)C(=O)C23CCN(C(=O)c2cnc4[nH]ncc4c2)CC3)c1 gave an IC50 of 16 µM (CYP2D6; enzyme activity, inhibitor).
Under “FRAP recovery half-time”, O=C(c1ccc(C(=O)N2CCC(N3CCCCC3)CC2)cc1)N1CCC(N2CCCCC2)CC1 is recorded as 28.5 s (Lethal(3)malignant brain tumor-like protein 3 (Homo sapiens, UniProt Q96JM7); FRAP; human cells; 1 µM).

A few entries again:
Under “FRAP recovery half-time”, O=C(c1ccc(C(=O)N2CCC(N3CCCCC3)CC2)cc1)N1CCC(N2CCCCC2)CC1 is recorded as 28.5 s (Lethal(3)malignant brain tumor-like protein 3 (Homo sapiens, UniProt Q96JM7); FRAP; human cells; 1 µM).
For [18F]c1ncccc1-c1ccc2c(n1)[nH]c1ccncc12, “initial brain uptake” read ~4 SUV (Microtubule-associated protein tau (MAPT, Homo sapiens, UniProt P10636); PET imaging; Alzheimer's disease patients; intravenous, dose not given, first 5 min).
